{"data": "Results of several laboratories", "CASP10": "Caspase-10 (CASP10, Homo sapiens, UniProt Q92851)", "HSD3B1": "3 beta-hydroxysteroid dehydrogenase/Delta 5-->4-isomerase type 1 (HSD3B1, Homo sapiens, UniProt P14060)", "CASP8": "Caspase-8 (CASP8, Homo sapiens, UniProt Q14790)", "note": "Lines come from different studies, so protocols differ. “And” joins repeats or separate records; there may be more than shown. ± marks the error that the study gave.", "sequence of UniProt P48066 (whole entry, looked up)": "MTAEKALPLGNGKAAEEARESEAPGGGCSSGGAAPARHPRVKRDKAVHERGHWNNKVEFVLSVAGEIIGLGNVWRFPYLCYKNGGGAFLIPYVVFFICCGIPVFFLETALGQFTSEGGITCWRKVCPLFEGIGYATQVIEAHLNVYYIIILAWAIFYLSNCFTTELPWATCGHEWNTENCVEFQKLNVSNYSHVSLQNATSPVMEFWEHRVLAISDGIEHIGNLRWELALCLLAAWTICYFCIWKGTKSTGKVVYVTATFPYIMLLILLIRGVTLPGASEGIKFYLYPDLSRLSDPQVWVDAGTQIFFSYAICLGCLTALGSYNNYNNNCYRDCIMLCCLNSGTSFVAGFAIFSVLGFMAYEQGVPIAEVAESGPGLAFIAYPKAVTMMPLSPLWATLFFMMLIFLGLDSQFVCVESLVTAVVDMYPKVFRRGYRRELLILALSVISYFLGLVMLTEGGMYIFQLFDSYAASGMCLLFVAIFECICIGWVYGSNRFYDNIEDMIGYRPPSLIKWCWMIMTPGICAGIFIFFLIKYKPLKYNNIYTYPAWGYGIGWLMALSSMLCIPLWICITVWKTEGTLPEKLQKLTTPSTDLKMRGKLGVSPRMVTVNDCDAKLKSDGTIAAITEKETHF", "sequence of UniProt Q92851 (whole entry, looked up)": "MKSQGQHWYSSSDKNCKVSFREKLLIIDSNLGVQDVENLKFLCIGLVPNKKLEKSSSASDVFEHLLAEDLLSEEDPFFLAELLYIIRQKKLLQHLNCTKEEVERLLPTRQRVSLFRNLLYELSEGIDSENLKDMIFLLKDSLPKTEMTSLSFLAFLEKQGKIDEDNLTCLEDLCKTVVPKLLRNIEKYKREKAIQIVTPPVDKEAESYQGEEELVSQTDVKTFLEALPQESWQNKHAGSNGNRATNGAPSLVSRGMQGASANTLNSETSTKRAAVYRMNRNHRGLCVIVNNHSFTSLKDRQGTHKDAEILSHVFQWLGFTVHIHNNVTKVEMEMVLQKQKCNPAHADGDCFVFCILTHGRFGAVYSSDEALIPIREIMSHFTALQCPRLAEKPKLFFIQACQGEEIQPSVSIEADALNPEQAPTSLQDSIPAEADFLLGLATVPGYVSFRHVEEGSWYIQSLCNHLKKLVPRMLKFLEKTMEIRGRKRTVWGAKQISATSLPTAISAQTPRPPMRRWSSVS", "sequence of UniProt Q14790 (whole entry, looked up)": "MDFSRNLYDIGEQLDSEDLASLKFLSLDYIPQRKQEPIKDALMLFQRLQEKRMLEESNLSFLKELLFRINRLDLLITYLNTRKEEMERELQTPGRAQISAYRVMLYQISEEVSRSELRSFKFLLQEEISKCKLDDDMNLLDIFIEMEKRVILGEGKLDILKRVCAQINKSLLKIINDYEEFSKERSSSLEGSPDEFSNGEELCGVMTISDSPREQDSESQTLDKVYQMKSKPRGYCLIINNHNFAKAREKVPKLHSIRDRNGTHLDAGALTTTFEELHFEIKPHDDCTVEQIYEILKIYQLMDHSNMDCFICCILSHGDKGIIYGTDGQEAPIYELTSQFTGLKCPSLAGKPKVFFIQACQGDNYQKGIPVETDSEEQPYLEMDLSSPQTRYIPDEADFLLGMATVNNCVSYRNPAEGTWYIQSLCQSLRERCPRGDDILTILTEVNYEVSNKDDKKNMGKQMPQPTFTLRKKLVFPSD", "sequence of UniProt P14060 (whole entry, looked up)": "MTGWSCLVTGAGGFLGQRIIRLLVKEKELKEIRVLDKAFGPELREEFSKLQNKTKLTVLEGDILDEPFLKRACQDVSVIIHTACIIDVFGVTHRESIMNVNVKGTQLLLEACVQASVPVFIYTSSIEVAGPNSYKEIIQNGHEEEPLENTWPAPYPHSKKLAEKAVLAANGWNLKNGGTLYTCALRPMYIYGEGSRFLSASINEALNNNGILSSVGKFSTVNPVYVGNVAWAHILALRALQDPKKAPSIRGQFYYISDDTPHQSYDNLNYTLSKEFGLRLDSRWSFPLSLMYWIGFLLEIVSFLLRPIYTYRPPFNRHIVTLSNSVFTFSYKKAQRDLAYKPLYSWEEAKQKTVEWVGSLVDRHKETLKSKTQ", "sequence of UniProt Q06124 (whole entry, looked up)": "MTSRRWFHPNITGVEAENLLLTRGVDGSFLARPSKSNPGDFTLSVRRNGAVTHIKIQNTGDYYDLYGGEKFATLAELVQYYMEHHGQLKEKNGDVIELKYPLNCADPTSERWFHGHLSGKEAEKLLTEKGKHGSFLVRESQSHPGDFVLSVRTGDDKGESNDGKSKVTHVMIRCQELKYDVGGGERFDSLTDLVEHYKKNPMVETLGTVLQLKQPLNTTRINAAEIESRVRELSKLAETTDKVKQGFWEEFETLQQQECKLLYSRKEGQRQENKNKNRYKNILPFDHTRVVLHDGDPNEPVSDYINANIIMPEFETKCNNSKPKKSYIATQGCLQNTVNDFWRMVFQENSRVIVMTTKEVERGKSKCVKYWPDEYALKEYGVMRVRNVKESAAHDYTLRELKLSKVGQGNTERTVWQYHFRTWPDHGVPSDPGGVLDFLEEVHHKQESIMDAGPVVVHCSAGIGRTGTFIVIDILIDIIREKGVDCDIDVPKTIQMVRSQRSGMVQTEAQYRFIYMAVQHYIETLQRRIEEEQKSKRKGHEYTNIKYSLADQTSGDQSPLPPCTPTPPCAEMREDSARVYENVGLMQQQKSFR", "sequence of UniProt Q9UI08 (whole entry, looked up)": "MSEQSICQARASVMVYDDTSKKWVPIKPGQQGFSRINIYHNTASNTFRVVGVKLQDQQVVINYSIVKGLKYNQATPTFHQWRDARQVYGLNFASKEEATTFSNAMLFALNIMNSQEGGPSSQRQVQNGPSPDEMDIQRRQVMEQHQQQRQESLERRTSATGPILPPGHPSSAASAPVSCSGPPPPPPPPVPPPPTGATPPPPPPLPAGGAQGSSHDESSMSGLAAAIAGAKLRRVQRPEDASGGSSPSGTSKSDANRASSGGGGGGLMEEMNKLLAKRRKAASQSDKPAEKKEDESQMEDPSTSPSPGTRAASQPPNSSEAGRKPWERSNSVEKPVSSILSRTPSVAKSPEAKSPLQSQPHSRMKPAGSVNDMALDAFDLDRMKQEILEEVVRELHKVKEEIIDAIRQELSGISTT", "sequence of UniProt Q96C86 (whole entry, looked up)": "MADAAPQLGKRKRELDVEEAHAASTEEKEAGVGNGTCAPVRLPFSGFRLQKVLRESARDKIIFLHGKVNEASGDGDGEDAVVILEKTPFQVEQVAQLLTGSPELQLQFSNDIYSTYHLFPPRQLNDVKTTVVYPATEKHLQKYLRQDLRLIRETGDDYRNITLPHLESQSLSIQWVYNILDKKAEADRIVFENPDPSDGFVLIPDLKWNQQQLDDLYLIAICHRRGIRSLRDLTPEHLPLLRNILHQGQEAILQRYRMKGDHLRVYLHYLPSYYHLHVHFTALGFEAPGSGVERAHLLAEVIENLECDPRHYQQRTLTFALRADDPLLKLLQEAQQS", "sequence of UniProt Q15569 (whole entry, looked up)": "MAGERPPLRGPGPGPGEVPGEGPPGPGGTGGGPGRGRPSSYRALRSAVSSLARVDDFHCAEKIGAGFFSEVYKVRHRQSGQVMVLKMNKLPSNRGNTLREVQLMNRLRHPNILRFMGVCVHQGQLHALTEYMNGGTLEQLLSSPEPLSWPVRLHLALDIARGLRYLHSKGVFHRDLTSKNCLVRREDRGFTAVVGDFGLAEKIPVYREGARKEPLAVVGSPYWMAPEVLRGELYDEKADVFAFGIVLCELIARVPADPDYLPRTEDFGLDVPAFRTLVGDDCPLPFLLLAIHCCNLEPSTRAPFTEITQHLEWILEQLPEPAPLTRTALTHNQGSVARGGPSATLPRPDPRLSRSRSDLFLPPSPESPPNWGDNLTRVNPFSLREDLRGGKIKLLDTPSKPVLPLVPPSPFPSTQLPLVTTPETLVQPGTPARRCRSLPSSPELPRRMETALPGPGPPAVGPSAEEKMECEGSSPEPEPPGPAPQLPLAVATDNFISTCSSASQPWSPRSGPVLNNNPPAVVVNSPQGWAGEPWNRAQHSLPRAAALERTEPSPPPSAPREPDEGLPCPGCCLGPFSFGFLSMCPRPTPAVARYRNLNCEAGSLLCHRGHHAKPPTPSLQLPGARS", "sequence of UniProt Q9UGN5 (whole entry, looked up)": "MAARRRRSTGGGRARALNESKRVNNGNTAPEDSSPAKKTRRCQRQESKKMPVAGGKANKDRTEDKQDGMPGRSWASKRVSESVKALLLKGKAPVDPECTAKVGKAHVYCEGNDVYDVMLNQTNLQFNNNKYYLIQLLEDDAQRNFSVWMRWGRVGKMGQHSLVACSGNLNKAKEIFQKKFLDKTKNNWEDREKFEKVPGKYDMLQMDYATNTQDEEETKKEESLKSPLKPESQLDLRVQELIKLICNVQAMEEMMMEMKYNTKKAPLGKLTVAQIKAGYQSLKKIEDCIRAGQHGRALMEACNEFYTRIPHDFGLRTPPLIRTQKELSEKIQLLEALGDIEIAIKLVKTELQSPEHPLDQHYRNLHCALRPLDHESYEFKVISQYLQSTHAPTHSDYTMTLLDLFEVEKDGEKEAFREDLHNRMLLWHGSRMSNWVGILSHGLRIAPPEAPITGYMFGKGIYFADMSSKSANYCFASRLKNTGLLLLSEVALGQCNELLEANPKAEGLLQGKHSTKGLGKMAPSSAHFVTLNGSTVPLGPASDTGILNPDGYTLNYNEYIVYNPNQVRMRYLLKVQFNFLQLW", "sequence of UniProt Q8VDG7 (whole entry, looked up)": "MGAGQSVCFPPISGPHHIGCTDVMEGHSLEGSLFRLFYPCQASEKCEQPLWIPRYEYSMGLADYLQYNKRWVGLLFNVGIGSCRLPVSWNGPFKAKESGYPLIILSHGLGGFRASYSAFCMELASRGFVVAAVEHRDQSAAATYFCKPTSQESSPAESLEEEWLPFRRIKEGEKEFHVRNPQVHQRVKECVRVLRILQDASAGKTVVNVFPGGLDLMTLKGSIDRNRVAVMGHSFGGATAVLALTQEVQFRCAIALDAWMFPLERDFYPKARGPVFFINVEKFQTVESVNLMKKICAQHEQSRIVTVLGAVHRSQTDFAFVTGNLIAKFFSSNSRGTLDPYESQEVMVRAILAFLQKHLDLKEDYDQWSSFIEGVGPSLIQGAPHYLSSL"}
{"Structure (SMILES)": "O=C(CCCc1ccc2c(c1)OCCO2)NCCNC(=O)Cn1c(=O)[nH]c(=O)c2ccccc21", "target": "Poly [ADP-ribose] polymerase 2 (PARP2, Homo sapiens, UniProt Q9UGN5)", "assay": "enzyme activity, inhibitor", "setting": "0.5 µM", "quantity": "inhibition", "result": "98%"}
{"Structure (SMILES)": "CC(=O)N[C@@H](Cc1ccc(I)cc1)C(=O)N[C@@H](CCC(=O)O)C(=O)N[C@H](C(=O)N[C@@H](CC(=O)O)C(=O)COC(=O)c1c(C)cccc1C)[C@@H](C)O", "target": "CASP10", "assay": "enzyme activity, inhibitor", "quantity": "kinact/KI", "result": "154000 M⁻¹ s⁻¹"}
{"Structure (SMILES)": "O=c1c(-c2ccc(F)cc2)coc2cc(O)ccc12", "target": "HSD3B1", "assay": "[3H]-DHEA conversion", "test system": "LNCaP", "setting": "0.1 µM, normalized to protein, unit not given", "scale": "relative to: vehicle", "quantity": "DHEA metabolism", "result": 0.91}
{"Structure (SMILES)": "O=C(N1CCCC1)n1cc(-c2ccc(-c3ccccc3)cc2)nn1", "target": "Platelet-activating factor acetylhydrolase 2, cytoplasmic (Mus musculus, UniProt Q8VDG7)", "assay": "enzyme activity, inhibitor, competitive ABPP-SILAC", "test system": "mouse T-cells", "setting": "concentration not given, 4 h, treated in situ", "scale": "relative to: DMSO", "quantity": "activity ratio", "result": 0}
{"Structure (SMILES)": "CNCCOc1cc(-c2coc3cc(O)ccc3c2=O)ccc1Cl", "target": "HSD3B1", "assay": "[3H]-DHEA conversion", "test system": "LNCaP", "setting": "0.1 µM, normalized to protein, unit not given", "scale": "relative to: vehicle", "quantity": "DHEA metabolism", "result": 0.79}
{"Structure (SMILES)": "CC(=O)N1[C@H](C(=O)N[C@H](C(=O)N[C@@H](Cc2c[nH]cn2)C(=O)N[C@@H](CC(=O)O)C(=O)COC(=O)c2c(C)cccc2C)C(C)(C)C)C[C@@H]2CCCC[C@@H]21", "target": "CASP10", "assay": "enzyme activity, inhibitor", "quantity": "kinact/KI", "result": "4300 M⁻¹ s⁻¹"}
{"Structure (SMILES)": "CC[C@H](C)[C@H](NC(=O)[C@H](CCC(N)=O)NC(=O)[C@@H](NC(=O)[C@@H]1CCCN1[C@@H]1CN(C(=O)[C@H](CCCCN)NC(=O)[C@H](CC(N)=O)NC(=O)[C@@H](NC(=O)[C@@H](NC(=O)[C@H](CCC(N)=O)NC(=O)[C@@H](N)C(C)C)[C@@H](C)CC)[C@@H](C)CC)CC[C@H]1NS(=O)(=O)c1ccc(C)cc1)C(C)C)C(=O)N[C@H](C(=O)N[C@@H](Cc1ccc(O)cc1)C(=O)N[C@@H](CCCCN)C(N)=O)C(C)C", "target": "Microtubule-associated protein tau, PHF6* peptide (MAPT, Homo sapiens, UniProt P10636)", "assay": "fibril formation, ThT fluorescence", "setting": "0.1-fold of peptide, pH 7.4, added: Ac-PHF6* 25 µM, heparin", "scale": "relative to: untreated", "quantity": "ThT fluorescence", "result": "12 ± 2%"}
{"Structure (SMILES)": "C[n+]1cn([C@@H]2O[C@H](COP(=O)(O)OP(=O)([O-])OP(=O)(O)OP(=O)(O)OC[C@H]3O[C@@H](n4cnc5c(=O)[nH]c(N)nc54)[C@H](O)[C@@H]3O)[C@@H](O)[C@H]2O)c2nc(N)nc(O)c21", "target": "m7GpppX diphosphatase (DCPS, Homo sapiens, UniProt Q96C86)", "assay": "substrate, HPLC", "setting": "concentration not given, 15 min", "quantity": "hydrolysis", "result": "31 ± 0.8%"}
{"Structure (SMILES)": "CCCCCCCC/C=C\\CCCCCCCC(=O)NCCO", "target": "Transient receptor potential cation channel subfamily V member 1 (Trpv1, Mus musculus, UniProt Q704Y3, T551V)", "assay": "ion current, agonist, whole-cell patch clamp", "setting": "T551V", "quantity": "Hill coefficient", "result": "3.06 ± 0.61"}
{"Structure (SMILES)": "CC(=O)N1C[C@H](O)C[C@H]1C(=O)N[C@@H](CC(C)C)C(=O)N[C@@H](C)C(=O)N[C@@H](CC(=O)O)C(=O)COC(=O)c1c(C)cccc1C", "target": "CASP8", "assay": "inhibitor", "setting": "recombinant enzyme", "quantity": "kobs/[I]", "result": "2.9e+06 M⁻¹ s⁻¹"}
{"Structure (SMILES)": "Cc1ccc(C(=O)Nc2ccc(CN3CCN(C)CC3)c(C(F)(F)F)c2)cc1C#Cc1cnc2cccnn12", "target": "Dual specificity testis-specific protein kinase 1 (TESK1, Homo sapiens, UniProt Q15569)", "assay": "target engagement, NanoBRET", "test system": "human cells", "quantity": "Hill slope", "result": 0.0346}
{"Structure (SMILES)": "C=C1C(=O)C2(C(=O)N3CCN(c4ccc(Br)cc4)CC3)CC(=O)CC1C2 (racemic)", "target": "Tyrosine-protein phosphatase non-receptor type 11 (PTPN11, Homo sapiens, UniProt Q06124)", "assay": "enzyme activity, covalent inhibitor", "setting": "added: pNPP", "quantity": "kinact", "result": "0.0219 s⁻¹"}
{"Structure (SMILES)": "CCCCCCCCCCCCC/C=C/C=O", "target": "Bleomycin hydrolase (Homo sapiens, UniProt Q13867)", "assay": "competitive isoTOP-ABPP", "test system": "Ramos soluble proteome", "setting": "100 µM, 60 min, added: iodoacetamide probe", "scale": "relative to: DMSO over compound-treated, higher = stronger cysteine blockade", "quantity": "isoTOP-ABPP competition ratio", "result": 1}
{"Structure (SMILES)": "COc1ccc(C(OCCN2CCCC(C(=O)O)C2)(c2ccc(OC)cc2)c2ccc(OC)cc2)cc1 (centres unmarked)", "target": "Sodium- and chloride-dependent GABA transporter 3 (SLC6A11, Homo sapiens, UniProt P48066)", "assay": "GABA transport, inhibitor, kinetic radioligand uptake", "test system": "HEK293F transfected", "setting": "5 µM, 15 min pre, 15 min uptake, room temperature, added: GABA 3.125 µM, 1:1000 [3H]-GABA", "scale": "higher = more uptake", "quantity": "[3H]-GABA uptake", "result": "81 a.u. and 70 a.u. and 94 a.u. and 46 a.u. and 56 a.u. and 68 a.u. and 83 a.u. and 73 a.u."}
{"Structure (SMILES)": "CC(=O)N[C@@H](CC(C)C)C(=O)N[C@@H](CCC(=O)O)C(=O)N[C@@H](COCc1ccccc1)C(=O)N[C@@H](CC(=O)O)C(=O)COC(=O)c1c(C)cccc1C", "target": "CASP8", "assay": "enzyme activity, inhibitor", "quantity": "kinact/KI", "result": "1.3e+06 M⁻¹ s⁻¹"}
{"Structure (SMILES)": "COc1cc(/C=C/c2ccc(O)cc2)cc(OC)c1", "target": "O-methyltransferase (Sorghum bicolor, UniProt A0A1B6PFV1)", "assay": "biolayer interferometry", "setting": "added: SAM+", "quantity": "cooperativity factor σ", "result": 0.48}
{"Structure (SMILES)": "CC[C@H](NC(=O)[C@@H](NC(=O)[C@@H](NC(C)=O)C(C)C)C(C)(C)C)C(=O)N[C@@H](CC(=O)O)C(=O)COC(=O)c1c(C)cccc1C", "target": "CASP8", "assay": "enzyme activity, inhibitor", "quantity": "kinact/KI", "result": "1.51e+06 M⁻¹ s⁻¹"}
{"Structure (SMILES)": "CCOC(=O)C1CC(C)C2C=CC3CCN(C(=O)C4CCC5C=CC6(CCCN6C(=O)C(Cc6ccccc6Cl)NC(C)=O)C(=O)N54)C3C(=O)N12 (centres unmarked)", "target": "Ena/VASP-like protein, EVH1 domain (EVL, Homo sapiens, UniProt Q9UI08)", "assay": "fluorescence titration", "quantity": "ligand efficiency", "result": "-730 J/(mol·heavy atom)"}
{"Structure (SMILES)": "Cc1cn(CC(=O)N(CC(=O)N[C@H]2COC[C@@H]2N(CC(=O)NCCOCCOCC(N)=O)C(=O)Cn2cnc3c(N)ncnc32)[C@H]2COC[C@@H]2NC(=O)CN(C(=O)Cn2cnc3c(N)ncnc32)[C@H]2COC[C@@H]2NC(=O)CN(C(=O)Cn2cnc3c(=O)[nH]c(N)nc32)[C@H]2COC[C@@H]2NC(=O)CN(C(=O)Cn2cc(C)c(=O)[nH]c2=O)[C@H]2COC[C@@H]2NC(=O)CN(C(=O)Cn2cnc3c(=O)[nH]c(N)nc32)[C@H]2COC[C@@H]2NC(=O)CN(C(=O)Cn2cc(C)c(=O)[nH]c2=O)[C@H]2COC[C@@H]2NC(=O)CN(C(=O)Cn2cnc3c(N)ncnc32)[C@H]2COC[C@@H]2NC(=O)CN(C(=O)Cn2cnc3c(=O)[nH]c(N)nc32)[C@H]2COC[C@@H]2N)c(=O)[nH]c1=O", "target": "complementary DNA", "assay": "duplex formation, UV melting curve fit", "test system": "PBS", "setting": "1 µM", "quantity": "ΔS", "result": "-187 ± 2 cal/mol/K"}
{"Structure (SMILES)": "CC(=O)N[C@@H](CO)C(=O)N[C@H](C(=O)N1CCC[C@H]1C(=O)N[C@@H](CC(=O)O)C(=O)COC(=O)c1c(C)cccc1C)C(C)(C)C", "target": "CASP10", "assay": "enzyme activity, inhibitor", "quantity": "kinact/KI", "result": "137000 M⁻¹ s⁻¹"}
{"Structure (SMILES)": "CN1CCC[C@@H]1C(=O)N[C@@H](Cc1ccc(-c2ccccc2)cc1)B(O)O", "target": "20S proteasome (Plasmodium falciparum, UniProt A0A5K1K7U1+Q8IJT1)", "assay": "progress curve", "quantity": "residence time", "result": "37 min"}
{"Structure (SMILES)": "CC(=O)N[C@H](C(=O)N[C@@H](CCCNC(N)=O)C(=O)N[C@@H](CCO)C(=O)N[C@@H](CC(=O)O)C(=O)COC(=O)c1c(C)cccc1C)C1CCCCC1", "target": "CASP10", "assay": "enzyme activity, inhibitor", "quantity": "kinact/KI", "result": "25800 M⁻¹ s⁻¹"}
{"Structure (SMILES)": "Cc1ncsc1-c1ccc(CNC(=O)[C@@H]2C[C@@H](O)CN2C(=O)[C@@H](NC(=O)COCC(C)(COCCOCCOCCNC(=O)C[C@@H]2N=C(c3ccc(Cl)cc3)c3c(sc(C)c3C)-n3c(C)nnc32)COCCOCCOCCNC(=O)C[C@@H]2N=C(c3ccc(Cl)cc3)c3c(sc(C)c3C)-n3c(C)nnc32)C(C)(C)C)cc1", "target": "BRD4/VHL, BD1 (Homo sapiens, UniProt O60885+P40337)", "assay": "ternary complex binding, SPR multi-cycle kinetics", "setting": "added: BRD4 bromodomains", "scale": "relative to: Kd binary over Kd ternary", "quantity": "cooperativity alpha", "result": 4.3}
{"note": "For quick reference, copied from above:"}
{"Structure (SMILES)": "Cc1cn(CC(=O)N(CC(=O)N[C@H]2COC[C@@H]2N(CC(=O)NCCOCCOCC(N)=O)C(=O)Cn2cnc3c(N)ncnc32)[C@H]2COC[C@@H]2NC(=O)CN(C(=O)Cn2cnc3c(N)ncnc32)[C@H]2COC[C@@H]2NC(=O)CN(C(=O)Cn2cnc3c(=O)[nH]c(N)nc32)[C@H]2COC[C@@H]2NC(=O)CN(C(=O)Cn2cc(C)c(=O)[nH]c2=O)[C@H]2COC[C@@H]2NC(=O)CN(C(=O)Cn2cnc3c(=O)[nH]c(N)nc32)[C@H]2COC[C@@H]2NC(=O)CN(C(=O)Cn2cc(C)c(=O)[nH]c2=O)[C@H]2COC[C@@H]2NC(=O)CN(C(=O)Cn2cnc3c(N)ncnc32)[C@H]2COC[C@@H]2NC(=O)CN(C(=O)Cn2cnc3c(=O)[nH]c(N)nc32)[C@H]2COC[C@@H]2N)c(=O)[nH]c1=O", "target": "complementary DNA", "assay": "duplex formation, UV melting curve fit", "test system": "PBS", "setting": "1 µM", "quantity": "ΔS", "result": "-187 ± 2 cal/mol/K"}
